Measurements of several laboratories.
Every numbered part comes from another study and shows a few of its results, in no order.

Series 1
Target: Prothrombin, mature alpha-thrombin (F2, Homo sapiens, UniProt P00734)
Technique: aptamer microarray, sandwich
Molecule type: DNA with 2'F-ANA
Matrix: in vitro
Tested at: 200 nM
Setting: whole 15-mer aptamer, many near background
With: Cy3 exosite-II aptamer, 400 nM
Reading: higher = stronger binding
Sequence: GGTTGGTGTGGTTGG
`2'F-ANA at 1 2 4 6 9 13 14 15`: “mean fluorescence intensity” 47.2 a.u.
Under “mean fluorescence intensity”, `2'F-ANA at 1 2 5 7 9 15` is recorded as 58.3 a.u.
`2'F-ANA at 1 2 5 7 8 10 11 12 14` — result for “mean fluorescence intensity”: 45 a.u.
`2'F-ANA at 3 4 6 7 8 9 10 12 14` — result for “mean fluorescence intensity”: 199 a.u.
`2'F-ANA at 2 5 6 8 11 12 15` — result for “mean fluorescence intensity”: 182 a.u.
`2'F-ANA at 3 7 9 10 11 13 14` — result for “mean fluorescence intensity”: 412 a.u.
Under “mean fluorescence intensity”, `2'F-ANA at 1 2 6 8 9 10 11 12 13` is recorded as 63.5 a.u.
For `2'F-ANA at 1 4 5 6 12 13 14 15`, “mean fluorescence intensity” read 65.7 a.u.
`2'F-ANA at 3 4 7 8 11 12` — result for “mean fluorescence intensity”: 1040 a.u.
`2'F-ANA at 2 3 4 6 7 11 12 13 14` — result for “mean fluorescence intensity”: 247 a.u.
`2'F-ANA at 1 3 5 7 10 11 14 15` — result for “mean fluorescence intensity”: 45.4 a.u.
`2'F-ANA at 1 2 10 11 12 14`: “mean fluorescence intensity” 45.2 a.u.
Under “mean fluorescence intensity”, `2'F-ANA at 1 2 3 5 6 7 8` is recorded as 62.5 a.u.
For `2'F-ANA at 1 2 5 6 7 10 13 14 15`, “mean fluorescence intensity” read 49.4 a.u.
`2'F-ANA at 5 6 8 9 11 12 14 15`: “mean fluorescence intensity” 49.6 a.u.
For `2'F-ANA at 6 7 9 12 15`, “mean fluorescence intensity” read 694 a.u.
`2'F-ANA at 2 4 5 7 8 9 10 11 12 13 14 15` — result for “mean fluorescence intensity”: 49.2 a.u.
Under “mean fluorescence intensity”, `2'F-ANA at 3 5 7 8 9 10 11 12 14 15` is recorded as 53.4 a.u.
`2'F-ANA at 2 3 7 9 10 13 15`: “mean fluorescence intensity” 365 a.u.
`2'F-ANA at 1 3 4 6 7 8 9 12 14 15` — result for “mean fluorescence intensity”: 90.6 a.u.
Under “mean fluorescence intensity”, `2'F-ANA at 2 3 5 7 8 12 15` is recorded as 272 a.u.
`2'F-ANA at 1 2 6 7 8 10 11 12 13 14 15` — result for “mean fluorescence intensity”: 51.9 a.u.
`2'F-ANA at 1 4 7 9 10 13 14`: “mean fluorescence intensity” 53.5 a.u.
`2'F-ANA at 2 11 12 14 15`: “mean fluorescence intensity” 213 a.u.
Under “mean fluorescence intensity”, `2'F-ANA at 1 4 6 9 11 12 13 14` is recorded as 50.4 a.u.

Series 2
Target: Histone acetyltransferase KAT6A, winged helix 1, GST fusion (KAT6A, Homo sapiens, UniProt Q92794, residues 1-85)
Technique: protein binding microarray
Molecule type: double-stranded DNA, one strand shown
Matrix: in vitro
Tested at: not given
Setting: 8-mer, flanks averaged, mean of 2 arrays, mostly near background
Baseline: not given
Reading: higher = stronger binding
Target sequence (chain): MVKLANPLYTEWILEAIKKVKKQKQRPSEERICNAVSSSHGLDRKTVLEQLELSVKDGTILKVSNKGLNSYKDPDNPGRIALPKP
The E-score of `ACCGACAT` is reported as 0.0481.
The E-score of `ACGAGTTC` is reported as -0.22.
With `ACGAACTA` the E-score was -0.199.
With `ACGAGAGC` the E-score was -0.0126.
`GCTGGCAC` gave an E-score of -0.0737.
`GCTTTAGA` has an E-score of -0.183.
The E-score of `CCCGCGGA` is reported as 0.363.
With `AATACTGT` the E-score was -0.134.
`ATAGGGCG` gave an E-score of 0.018.
`ACGGCTTA` gave an E-score of 0.345.
`TCATTACA` gave an E-score of 0.086.
With `CTTTCTAC` the E-score was -0.0936.
`ATGATTCG` gave an E-score of -0.00186.
`AGGTTGTA` gave an E-score of -0.00244.
For `ACACTTAG`, the E-score was -0.16.
`GCGAAATA` gave an E-score of -0.00978.
`AAAGAAAG` gave an E-score of -0.219.
The E-score of `ACAGAAGG` is reported as -0.103.
`CAGTTAGG` gave an E-score of -0.203.
`AGTTCGAA` gave an E-score of 0.00878.
The E-score of `ACTCTTGG` is reported as -0.238.
For `AATGAGAT`, the E-score was -0.145.
`AGAATCAG` has an E-score of -0.118.
For `AATAGTCG`, the E-score was 0.0491.
The E-score of `AACAGTAA` is reported as -0.0537.

Series 3
Target: Interferon regulatory factor 5, full length, phosphomimetic (IRF5, Homo sapiens, UniProt Q13568-2, residues 1-514, K96S/S451D/S453D/S456D/S462D)
Technique: protein-binding microarray
Molecule type: double-stranded DNA, one strand shown
Matrix: in vitro
Tested at: 250 nM
Setting: 60-bp whole probe
With: salmon DNA 0.4 mg/ml
Baseline: random background probes
Reading: higher = stronger binding
Shared flanks, not repeated: GCCTAGCAC … GTCTTGATTCGCTTGACGCTGCTG
For `TCACATTCACCTGTCGTACTGTGCTAG`, the log fluorescence was 0.495 z-score.
`GACGGACTGCTTCACCTGACGTGCTAG` gave a log fluorescence of -0.496 z-score.
The log fluorescence of `TCAGGTTTACCAGATCATCTGGTGCTA` is reported as -0.409 z-score.
The log fluorescence of `TCAGGTATAGCACTAAGACTGTGCTAG` is reported as -0.167 z-score.
`TTAGATCTCAGACTGGACTAGTGCTAG` has a log fluorescence of -0.302 z-score.
`GACGGTTTCGGCACTGGGGACGTGCTA` gave a log fluorescence of 4.9 z-score.
For `GACGGTATCGGTAGCGGGACGTGCTAG`, the log fluorescence was 3.97 z-score.
With `TTAGGTTTCGGGTTTCAGTTAGTGCTA` the log fluorescence was 8.69 z-score.
For `TTACGTTTCCTTCTCCTTTAGTGCTAG`, the log fluorescence was 2.08 z-score.
`TTAGGATTGCTTCTCCTTTAGTGCTAG` gave a log fluorescence of 0.151 z-score.
`TTAGGTCTCCTTATCATTTAGTGCTAG` gave a log fluorescence of 0.0584 z-score.
With `TTAGATTCCAGTTTCGATGAGTGCTAG` the log fluorescence was 8.81 z-score.
`GAAGGTTTCCTTCTCCTGACGTGCTAG` gave a log fluorescence of 0.799 z-score.
`GACGGCATCGGTCTCGGGACGTGCTAG` gave a log fluorescence of -0.0539 z-score.
`TTAGGACTGGGTATCCGTTAGTGCTAG` has a log fluorescence of -0.195 z-score.
`TGCCTTTTGCTTTACTGATGGTGCTAG` has a log fluorescence of 0.761 z-score.
The log fluorescence of `TGAAAATTAGTGTTTGCCCTAGTGCTA` is reported as 0.82 z-score.
With `TACGATATCAGACTGGAGACGTGCTAG` the log fluorescence was 0.38 z-score.
`TCAAGTATGACTCTGCCACTGTGCTAG` gave a log fluorescence of -0.173 z-score.
For `TTAGGTATCCTACTGCTTAAGTGCTAG`, the log fluorescence was 0.247 z-score.
With `TTAGAACTGAGACTGGATTGGTGCTAG` the log fluorescence was -0.284 z-score.
With `GACGGTCTCGTACTGCTGACGTGCTAG` the log fluorescence was -0.0303 z-score.
`TTAAGTTTCGACACTGGGTTAGTGCTA` has a log fluorescence of 7.82 z-score.
For `GACGATTTCAGCATCGAGACGTGCTAG`, the log fluorescence was 0.568 z-score.
`CCGAAAATGCCCTTTTGGTGAGTGCTA` has a log fluorescence of 2.9 z-score.

Series 4
Target: RNA binding protein fox-1 homolog 2, RRM domain, GST-SBP tag (RBFOX2, Homo sapiens, UniProt O43251-10, residues 100-194)
Technique: RNA Bind-n-Seq
Molecule type: RNA
Matrix: in vitro
Tested at: 365 nM
Setting: natural RNA segment, single round, ends assumed
Baseline: no-protein control
Reading: higher = stronger binding
Target sequence (chain): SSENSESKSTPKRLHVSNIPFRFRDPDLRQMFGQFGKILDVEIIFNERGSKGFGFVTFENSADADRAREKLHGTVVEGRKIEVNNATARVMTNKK
`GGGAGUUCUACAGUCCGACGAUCGGAAUGUUAGUACCAAAUUUCUACAUGUGAGCUUUGGGGGCCAGGUCCUAGAGAGCCCAAGUGGGAGAAUGGUAUUUAGGAGAUGAAAAACCUGGCCUAGCAAGAGCUUUUGGAAUUCUCGGGUGCCAA` — result for “RBNS enrichment (R)”: 0.984.
Under “RBNS enrichment (R)”, `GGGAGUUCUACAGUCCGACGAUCCUGUGGGAUUUGUGGACACUUAAGAAACGGACUGAGUGGGAACCCUGCAGCCAGGGGAUGGGGAGCCUCUGCUCCCCCCAUGCUCCCACCCUGGCUGAGGGCCAGCCUCAUGGAAUUCUCGGGUGCCAA` is recorded as 0.551.
For `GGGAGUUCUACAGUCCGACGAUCUGGGUAAGGAACCAAAGCUCUCUUGGCUAUAGCCAGCCUCCUCAUUGAAGGGUGUUUUAGGGUAUCUGCCCACAGAUUUUCUCCAAACAAUUGGGAAGUGCCUAGAGUCCUGGAAUUCUCGGGUGCCAA`, “RBNS enrichment (R)” read 0.282.
`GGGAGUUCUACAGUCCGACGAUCCCAGGUGGGAGGGCUCUGGGAGUGAUGGGGUGACAGGGUGGACUGAUGGCUGGGGUCCCCCAUCUGCUAUGCGUACUUCACUGACCUAUAAACACUAAGAUGGGGUGCAAUGGAAUUCUCGGGUGCCAA` — result for “RBNS enrichment (R)”: 2.28.
For `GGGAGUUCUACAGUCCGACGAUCCCCGGUCCCCUUUUCUUUAUUAUCGAAGAUAUUGUUUAAAAGAAAGAAAAAGUAGGUCCCAAUAAUAUAUGUGCUAUUCAAAAAAUGUGAUCAUUUAGGACAUUAUCACAUGGAAUUCUCGGGUGCCAA`, “RBNS enrichment (R)” read 0.638.
Under “RBNS enrichment (R)”, `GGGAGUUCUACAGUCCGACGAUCGUCAUAGAAUUGAUUACCCGCCGAAUUCAUUAAUUUACUGUAGUGUUAAGAGAAGCACUAAGAAUGCCAGUGACCUGUGUAAAAGUUACAAGUAAUAGAACUAUGACUGUUGGAAUUCUCGGGUGCCAA` is recorded as 26.8.
Under “RBNS enrichment (R)”, `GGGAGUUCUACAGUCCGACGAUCAGUUGGCCAGCACUAACUCCACCUCUGUUCUCCUUGAACAGCUUCCCCUCCAGCCCACUGCUUUAGGAUGACACAAUGAAUAACACCUAGUCAUAGAAAUCAGUCUCUCUUGGAAUUCUCGGGUGCCAA` is recorded as 0.268.
`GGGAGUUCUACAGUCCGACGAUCUAUUUGACAAGUAGAAGUUAACUUACUUGUCAGGGAGGGCAGACGUUUUUUUGUUCUGUUUCGUUUUUCAAAAUAAUGCUUUUUGCAAAAGAGGUAAGACUGAGACUAAAUGGAAUUCUCGGGUGCCAA` — result for “RBNS enrichment (R)”: 0.25.
`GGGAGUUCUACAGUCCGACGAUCGCUUCUUUAGGUCAAAGAAAUCAAUUGCUUUCCAUAGAGCUGAUACUGUGAACAUUCGAAUGCAUCUGUGGCCUUCGCCUCCCCAGCUGCCCUGUCCCUCCUUGGAAACAUGGAAUUCUCGGGUGCCAA` — result for “RBNS enrichment (R)”: 0.254.
`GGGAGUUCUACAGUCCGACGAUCGCAGGGCAGGGCUGCUUUAACAGGCAGGGGUGGCAGUAAGUCACAGCUGCUGCUGCUGUCGUCUGCCCGCCAUUCAGCUAACCGUUCUGUUGAGGUCCUGCCUUGUGCUUUGGAAUUCUCGGGUGCCAA` — result for “RBNS enrichment (R)”: 0.35.
`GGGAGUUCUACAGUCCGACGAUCACUCUCAGCUUGCAGGUCUUCGUGAGUCACUGAGAGGAUUCCAGGCAGCUAUCUCGAGAGCCACUGCUAGAACACCUUUUCCUGGAGGCUGCCCCACCAAAUGCUCAACCUGGAAUUCUCGGGUGCCAA`: “RBNS enrichment (R)” 6.41.
`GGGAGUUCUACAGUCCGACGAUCGCAACUAAAAAUAUUACAGUUUAAUAAUCAAUUAAACCAACCAACAAUAAGCACUACACAUCUGCCACCAACAAUGUUGUUUGCAUUUACCUUACCAAUAUUAAUCCCAGUGGAAUUCUCGGGUGCCAA`: “RBNS enrichment (R)” 0.78.
